{"data": "Assay results pooled from the literature", "note": "Each numbered part is a random draw from the data of one study; scales do not carry over between parts. “And” joins repeats or separate records; there may be more than shown."}
{"data": "Sample 1", "target": "Sal-like protein 4, full length isoform A (SALL4, Homo sapiens, UniProt Q9UJQ4, residues 1-1053)", "method": "universal PBM", "form": "double-stranded DNA, one strand shown", "medium": "in vitro", "tested at": "600 nM", "setting": "8-mer, flanks averaged, mean of replicates", "direction": "higher = stronger binding", "sequence of UniProt Q9UJQ4 (whole entry, looked up)": "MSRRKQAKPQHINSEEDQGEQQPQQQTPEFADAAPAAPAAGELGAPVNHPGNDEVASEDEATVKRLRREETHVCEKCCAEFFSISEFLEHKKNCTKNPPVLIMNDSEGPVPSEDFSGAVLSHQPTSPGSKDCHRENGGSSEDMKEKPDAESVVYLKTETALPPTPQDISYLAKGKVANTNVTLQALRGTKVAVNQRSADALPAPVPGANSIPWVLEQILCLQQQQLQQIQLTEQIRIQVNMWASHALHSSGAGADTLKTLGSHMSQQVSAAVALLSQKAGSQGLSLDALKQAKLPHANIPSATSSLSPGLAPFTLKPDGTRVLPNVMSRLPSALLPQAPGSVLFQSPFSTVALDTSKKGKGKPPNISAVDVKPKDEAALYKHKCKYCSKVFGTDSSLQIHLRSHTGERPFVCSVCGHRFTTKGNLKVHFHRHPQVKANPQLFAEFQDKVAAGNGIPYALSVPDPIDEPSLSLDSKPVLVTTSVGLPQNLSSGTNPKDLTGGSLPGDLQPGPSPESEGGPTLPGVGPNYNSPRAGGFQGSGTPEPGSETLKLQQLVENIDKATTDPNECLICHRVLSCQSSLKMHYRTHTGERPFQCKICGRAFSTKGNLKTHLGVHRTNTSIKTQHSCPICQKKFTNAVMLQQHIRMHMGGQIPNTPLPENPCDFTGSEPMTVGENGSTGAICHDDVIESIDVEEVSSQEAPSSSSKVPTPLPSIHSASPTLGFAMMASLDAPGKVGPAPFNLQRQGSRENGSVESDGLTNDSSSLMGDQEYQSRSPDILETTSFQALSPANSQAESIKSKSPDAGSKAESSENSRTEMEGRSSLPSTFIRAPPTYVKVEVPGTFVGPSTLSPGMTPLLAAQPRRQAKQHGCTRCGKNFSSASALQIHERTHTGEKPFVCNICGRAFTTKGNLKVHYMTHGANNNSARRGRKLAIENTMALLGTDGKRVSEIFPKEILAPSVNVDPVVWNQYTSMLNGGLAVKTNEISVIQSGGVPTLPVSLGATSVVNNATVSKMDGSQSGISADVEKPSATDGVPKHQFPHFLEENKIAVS"}
{"Strand": "GTTGAAGA", "E-score": 0.161}
{"Strand": "AGGAAGAT", "E-score": -0.0391}
{"Strand": "ACATCTAC", "E-score": 0.174}
{"Strand": "CCAGAACC", "E-score": -0.178}
{"Strand": "AATGGCAT", "E-score": 0.143}
{"Strand": "AACGACAT", "E-score": 0.12}
{"Strand": "ACCAGCGG", "E-score": -0.255}
{"Strand": "AAACGGAT", "E-score": 0.0826}
{"data": "Sample 2", "target": "Ras GTPase-activating protein-binding protein 1, RRM domain (G3BP1, Homo sapiens, UniProt Q13283)", "method": "RNA Bind-n-Seq", "form": "RNA", "medium": "in vitro", "tested at": "1 µM", "setting": "whole 134-nt RNA, ends assumed", "together with": "150 mM KCl", "reference": "input library", "direction": "higher = stronger binding", "all sequences stand within": "GGGAGUUCUACAGUCCGACGAUC … UGGAAUUCUCGGGUGUCAAGG", "sequence of UniProt Q13283 (whole entry, looked up)": "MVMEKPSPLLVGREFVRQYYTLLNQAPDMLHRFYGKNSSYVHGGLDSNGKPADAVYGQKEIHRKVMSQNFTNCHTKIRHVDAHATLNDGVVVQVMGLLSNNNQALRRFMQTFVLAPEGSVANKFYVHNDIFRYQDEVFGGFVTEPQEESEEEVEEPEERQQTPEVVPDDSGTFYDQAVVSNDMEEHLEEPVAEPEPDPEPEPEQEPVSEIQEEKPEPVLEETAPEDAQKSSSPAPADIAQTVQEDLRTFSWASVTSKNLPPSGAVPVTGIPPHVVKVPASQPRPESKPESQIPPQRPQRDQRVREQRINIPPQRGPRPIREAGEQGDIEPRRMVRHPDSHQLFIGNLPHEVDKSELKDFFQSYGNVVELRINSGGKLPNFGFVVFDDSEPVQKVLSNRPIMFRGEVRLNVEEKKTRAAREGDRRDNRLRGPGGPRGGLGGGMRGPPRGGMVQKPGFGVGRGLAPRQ"}
{"Strand": "UCCUCAAGUCCUGUGCUACACAUCGUAUGUACCGAAUCGGAGGUUUGGUGGAAAGUAUUAUGUUACGCCGUUCGGAUCUGCACUUCCAGC", "log2 enrichment": -0.285}
{"Strand": "GUCCUGUGCUACACAUCGUAUGUACCGAAUCGGGGAAAAAAAGGGGUGGGGUUUGGGGAAAGUAUUAUGUUACGCCGUUCGGAUCUGCAC", "log2 enrichment": 0.862}
{"Strand": "CCUCAAGUCCUGUGCUACACAUCGUAUGUACCGAAUCGGGUGGGUGGGGUGGGAAAGUAUUAUGUUACGCCGUUCGGAUCUGCACUUCCA", "log2 enrichment": 0.726}
{"Strand": "UCAAGUCCUGUGCUACACAUCGUAUGUACCGAAUCGGGUUGGGGUUGGGUUGGGAAAGUAUUAUGUUACGCCGUUCGGAUCUGCACUUCC", "log2 enrichment": 0.663}
{"Strand": "GUCCUGUGCUACACAUCGUAUGUACCGAAUCAAAUUUUUAAAUUUUUAAAUUUUUAAAAAAGUAUUAUGUUACGCCGUUCGGAUCUGCAC", "log2 enrichment": -0.792}
{"data": "Sample 3", "target": "Histone acetyltransferase KAT6A, winged helix 1, GST fusion (KAT6A, Homo sapiens, UniProt Q92794, residues 1-85)", "method": "protein binding microarray", "form": "double-stranded DNA, one strand shown", "medium": "in vitro", "tested at": "not given", "setting": "8-mer, flanks averaged, mean of 2 arrays, mostly near background", "reference": "not given", "direction": "higher = stronger binding", "Residues (chain)": "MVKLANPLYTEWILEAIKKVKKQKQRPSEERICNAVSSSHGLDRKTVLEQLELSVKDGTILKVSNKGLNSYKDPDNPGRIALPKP"}
{"Strand": "CCACATGC", "E-score": -0.0146}
{"Strand": "ACATGTGG", "E-score": -0.118}
{"Strand": "AGCACAAT", "E-score": -0.212}
{"Strand": "CTACGAAG", "E-score": -0.224}
{"Strand": "GATTAACC", "E-score": 0.0176}
{"Strand": "AGAATGTA", "E-score": -0.0249}
{"Strand": "GAAAAGAC", "E-score": -0.116}
{"Strand": "AACATACT", "E-score": -0.037}
{"data": "Other studies, line by line"}
{"Substance": "PhoQ, residues 284 288 289 292 302 303 AGGCYF", "target": "PhoP, residues 12 14 15 18 19 LWHSL (Escherichia coli, UniProt P23836)", "assay": "Sort-seq, item: YFP reporter", "system": "E. coli", "conditions": "PhoQ-PhoP variant library, together with: 10 µM Mg2+", "scale": "reference: high Mg2+ state, higher = stronger signaling", "quantity": "fold induction", "value": "15.5 and 11.3"}
{"note": "For quick reference, copied from above (sample 2):"}
{"Strand": "CCUCAAGUCCUGUGCUACACAUCGUAUGUACCGAAUCGGGUGGGUGGGGUGGGAAAGUAUUAUGUUACGCCGUUCGGAUCUGCACUUCCA", "log2 enrichment": 0.726}
{"Strand": "UCAAGUCCUGUGCUACACAUCGUAUGUACCGAAUCGGGUUGGGGUUGGGUUGGGAAAGUAUUAUGUUACGCCGUUCGGAUCUGCACUUCC", "log2 enrichment": 0.663}
